Results pooled from the literature.
Each line is one published result; not all experiments were run side by side. Numbers after ± are the reported error.
MCA2: Metacaspase-2 (MCA2, Trypanosoma brucei brucei, UniProt Q585F3)
Sequence of UniProt Q585F3 (whole entry, looked up): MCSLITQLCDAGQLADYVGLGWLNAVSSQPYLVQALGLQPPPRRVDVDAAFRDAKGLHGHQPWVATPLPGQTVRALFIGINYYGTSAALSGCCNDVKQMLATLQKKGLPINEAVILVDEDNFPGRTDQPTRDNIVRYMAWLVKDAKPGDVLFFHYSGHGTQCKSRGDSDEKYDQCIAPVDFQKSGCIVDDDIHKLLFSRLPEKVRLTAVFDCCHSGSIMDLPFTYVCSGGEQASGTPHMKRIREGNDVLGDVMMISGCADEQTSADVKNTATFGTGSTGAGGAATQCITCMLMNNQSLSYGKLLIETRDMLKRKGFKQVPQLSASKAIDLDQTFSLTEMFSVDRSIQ
blaNDM-1: Metallo-beta-lactamase type 2 (blaNDM-1, Klebsiella pneumoniae, UniProt C7C422)
Sequence of UniProt C7C422 (whole entry, looked up): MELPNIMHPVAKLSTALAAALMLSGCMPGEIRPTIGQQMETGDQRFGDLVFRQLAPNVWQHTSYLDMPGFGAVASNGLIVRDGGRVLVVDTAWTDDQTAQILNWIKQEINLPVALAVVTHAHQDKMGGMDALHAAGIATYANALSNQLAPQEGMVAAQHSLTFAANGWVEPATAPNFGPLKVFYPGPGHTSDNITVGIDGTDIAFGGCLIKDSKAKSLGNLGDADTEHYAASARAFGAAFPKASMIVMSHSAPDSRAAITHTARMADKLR
Oprm1: Mu-type opioid receptor (Oprm1, Rattus norvegicus, UniProt P33535)
Sequence of UniProt P33535 (whole entry, looked up): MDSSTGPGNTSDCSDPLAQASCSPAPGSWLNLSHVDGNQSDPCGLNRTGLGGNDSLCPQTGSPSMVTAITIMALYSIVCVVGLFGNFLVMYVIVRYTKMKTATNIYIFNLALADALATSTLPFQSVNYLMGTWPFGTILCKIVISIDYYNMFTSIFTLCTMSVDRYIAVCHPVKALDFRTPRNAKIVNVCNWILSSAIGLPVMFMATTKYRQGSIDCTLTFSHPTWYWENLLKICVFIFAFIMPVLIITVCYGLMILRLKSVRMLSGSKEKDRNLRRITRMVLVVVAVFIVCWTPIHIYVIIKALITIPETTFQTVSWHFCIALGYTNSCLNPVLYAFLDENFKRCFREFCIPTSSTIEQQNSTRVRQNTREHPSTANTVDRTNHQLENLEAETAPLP
Sequence of UniProt P32300 (whole entry, looked up): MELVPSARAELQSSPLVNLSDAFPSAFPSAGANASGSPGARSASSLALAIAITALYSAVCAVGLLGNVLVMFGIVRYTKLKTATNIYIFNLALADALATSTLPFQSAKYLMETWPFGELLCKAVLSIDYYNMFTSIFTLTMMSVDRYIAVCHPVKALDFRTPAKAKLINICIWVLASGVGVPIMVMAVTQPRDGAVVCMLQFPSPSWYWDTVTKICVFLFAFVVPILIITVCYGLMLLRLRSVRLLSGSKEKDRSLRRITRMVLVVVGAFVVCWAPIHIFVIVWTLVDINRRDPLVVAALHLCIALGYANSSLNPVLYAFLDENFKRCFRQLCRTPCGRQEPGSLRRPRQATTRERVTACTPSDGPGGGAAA
Sequence of UniProt Q02248 (whole entry, looked up): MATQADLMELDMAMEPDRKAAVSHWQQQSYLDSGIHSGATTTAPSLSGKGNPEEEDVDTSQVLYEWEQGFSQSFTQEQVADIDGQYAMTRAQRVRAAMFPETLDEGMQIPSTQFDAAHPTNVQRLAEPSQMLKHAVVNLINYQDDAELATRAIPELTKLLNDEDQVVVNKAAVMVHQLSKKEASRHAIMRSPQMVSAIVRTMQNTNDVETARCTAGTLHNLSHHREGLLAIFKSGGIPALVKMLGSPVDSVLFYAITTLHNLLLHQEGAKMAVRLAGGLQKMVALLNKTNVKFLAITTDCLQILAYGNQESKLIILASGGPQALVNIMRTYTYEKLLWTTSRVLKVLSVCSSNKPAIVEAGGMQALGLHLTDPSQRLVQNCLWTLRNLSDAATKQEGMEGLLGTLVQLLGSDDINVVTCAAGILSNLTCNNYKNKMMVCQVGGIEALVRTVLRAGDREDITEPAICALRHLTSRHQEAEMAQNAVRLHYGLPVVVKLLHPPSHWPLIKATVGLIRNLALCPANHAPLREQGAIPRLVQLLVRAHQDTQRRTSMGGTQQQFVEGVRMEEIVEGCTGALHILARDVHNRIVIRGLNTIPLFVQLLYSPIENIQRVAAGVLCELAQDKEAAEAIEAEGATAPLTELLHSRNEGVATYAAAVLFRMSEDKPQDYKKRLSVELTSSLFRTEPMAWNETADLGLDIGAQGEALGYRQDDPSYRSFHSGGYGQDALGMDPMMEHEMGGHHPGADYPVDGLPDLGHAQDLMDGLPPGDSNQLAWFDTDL
Sequence of UniProt P42336 (whole entry, looked up): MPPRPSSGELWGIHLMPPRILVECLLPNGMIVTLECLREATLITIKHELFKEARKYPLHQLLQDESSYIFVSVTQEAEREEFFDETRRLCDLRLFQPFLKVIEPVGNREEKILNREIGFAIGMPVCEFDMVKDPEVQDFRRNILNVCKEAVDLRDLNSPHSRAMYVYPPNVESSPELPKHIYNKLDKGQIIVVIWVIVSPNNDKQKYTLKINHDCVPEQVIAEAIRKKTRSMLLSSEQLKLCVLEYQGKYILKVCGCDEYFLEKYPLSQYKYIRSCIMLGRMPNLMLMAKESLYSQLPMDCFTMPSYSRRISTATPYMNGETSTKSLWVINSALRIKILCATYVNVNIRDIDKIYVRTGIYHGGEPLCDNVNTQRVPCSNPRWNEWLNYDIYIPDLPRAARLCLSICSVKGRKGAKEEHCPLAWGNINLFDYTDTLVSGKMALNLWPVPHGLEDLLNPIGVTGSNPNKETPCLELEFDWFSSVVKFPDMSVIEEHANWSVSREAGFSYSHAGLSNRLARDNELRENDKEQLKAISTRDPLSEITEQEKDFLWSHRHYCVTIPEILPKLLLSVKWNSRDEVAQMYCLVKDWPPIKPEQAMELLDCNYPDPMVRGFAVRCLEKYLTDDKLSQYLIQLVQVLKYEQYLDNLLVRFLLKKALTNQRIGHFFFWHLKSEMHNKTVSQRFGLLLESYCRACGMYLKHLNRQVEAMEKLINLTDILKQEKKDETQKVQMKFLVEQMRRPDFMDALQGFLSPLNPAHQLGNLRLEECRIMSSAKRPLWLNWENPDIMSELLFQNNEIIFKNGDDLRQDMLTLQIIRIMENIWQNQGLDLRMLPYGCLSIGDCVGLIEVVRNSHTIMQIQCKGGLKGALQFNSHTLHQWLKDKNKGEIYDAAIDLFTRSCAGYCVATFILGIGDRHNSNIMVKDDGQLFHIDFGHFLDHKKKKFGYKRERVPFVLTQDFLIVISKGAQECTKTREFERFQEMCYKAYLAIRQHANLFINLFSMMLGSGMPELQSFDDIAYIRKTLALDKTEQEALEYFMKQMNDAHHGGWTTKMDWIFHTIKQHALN

SMILES | target | assay | test system | conditions | Ki
CCN(N=Cc1cnc2ccc(Br)cn12)S(=O)(=O)c1cc([N+](=O)[O-])ccc1C | Phosphatidylinositol 4,5-bisphosphate 3-kinase catalytic subunit alpha isoform (PIK3CA, Homo sapiens, UniProt P42336) | enzyme activity, inhibitor |  | competitive model, with: PI substrate | 6.9 ± 2.8 nM
C[C@H](NC(=O)[C@H](CCC(=O)O)NC(=O)c1ccccc1N)C(=O)N[C@@H](CCCNC(=N)N)C(=O)N[C@@H](CO)C(=O)N[C@@H](CO)C(=O)N[C@@H](C)C(=O)N[C@@H](CCC(N)=O)C(=O)NCCNc1ccc([N+](=O)[O-])cc1[N+](=O)[O-] | MCA2 | enzyme activity, competitive inhibitor | Trypanosoma brucei | with: Z-FR-AMC substrate | 3800 nM
Cc1cc(O)cc(C)c1C[C@H](N)C(=O)N[C@H](CCCNC(=N)N)C(=O)N[C@@H](Cc1ccccc1)C(=O)N[C@@H](CCCCN)C(=O)NCCCCCC(=O)N[C@@H](CCCCNC(=O)CN1CCN(CC(=O)O)CCN(CC(=O)O)CCN(CC(=O)O)CC1)C(N)=O | Delta-type opioid receptor (Oprd1, Mus musculus, UniProt P32300) | binding | CD-1 mouse |  | 33.8 ± 1.8 nM
CC[C@H](C)[C@@H]1NC(=O)[C@@H]2CCCN2C(=O)[C@@H](CS)NC(=O)[C@H](Cc2ccc(O)cc2)NC(=O)[C@@H](CCCNC(=N)N)NC(=O)[C@@H](CCCNC(=N)N)NC(=O)[C@H](CCC(=O)O)NC(=O)[C@@H]2CCCN2C1=O | blaNDM-1 | enzyme activity, inhibitor |  | with: nitrocefin 1.5 µM | 2580 nM
CC(C)(COP(=O)(O)OP(=O)(O)OC[C@H]1O[C@@H](n2cnc3c(N)ncnc32)[C@H](O)[C@@H]1OP(=O)(O)O)[C@@H](O)C(=O)NCCC(=O)NCCSCC(=O)N[C@@H](CO)C(=O)NCC(=O)N[C@@H](CCCNC(=N)N)C(=O)N[C@@H](CCCNC(=N)N)C(=O)N[C@@H](CCCNC(=N)N)C(=O)N[C@@H](CCCNC(=N)N)C(=O)N[C@@H](CCCNC(=N)N)C(=O)N[C@@H](CCCNC(=N)N)C(N)=O | N-alpha-acetyltransferase 40 (NAA40, Homo sapiens, UniProt Q86UY6) | enzyme activity, inhibitor, fluorescence |  |  | 337 nM
NC(=O)[C@@H]1CC/C=C\C[C@@H](NC(=O)[C@@H](N)Cc2ccc(O)cc2)C(=O)N[C@@H](Cc2ccccc2)C(=O)N[C@@H](Cc2ccccc2)C(=O)N1 | Oprm1 | ligand displacement, radioligand |  | cell membranes | 0.281 nM
CC(C)C[C@H](NC(=O)[C@H](CCCCN)NC(=O)[C@H](CCCCN)NC(=O)Cc1cccc(CNC(=O)CNC(=O)CNC(=N)N)c1)B(O)O | Genome polyprotein, NS2B-NS3 protease (ZIKV, UniProt A0A024B7W1) | inhibitor | Zika virus |  | 31.5 ± 4.7 nM
CC(C)c1cc2c(c(O)c1O)C1(C=O)CCCC(C)(C)C1CC2 (centres unmarked) | Catenin beta-1, armadillo repeat domain (Mus musculus, UniProt Q02248) | binding, ELISA counter-screen |  |  | 90000 ± 22000 nM
Cc1cc(O)cc(C)c1C[C@H](N)C(=O)N[C@H](CCCNC(=N)N)C(=O)N[C@@H](Cc1ccccc1)C(=O)N[C@@H](CCCCN)C(=O)NCCCCCCCCCCCCNC(=O)[C@H](Cc1ccccc1)NC(=O)[C@H](CC1CCCCC1)NC[C@@H]1Cc2ccccc2CN1C(=O)[C@@H](N)Cc1ccc(O)cc1 | Oprm1 | ligand displacement, radioligand |  | cell membranes | 103 nM
C[C@H](NC(=O)[C@H](CCCCN)NC(=O)c1ccccc1N)C(=O)NCC(=O)N[C@@H](CO)C(=O)N[C@@H](CO)C(=O)N[C@@H](C)C(=O)N[C@@H](CCC(N)=O)C(=O)NCCNc1ccc([N+](=O)[O-])cc1[N+](=O)[O-] | MCA2 | enzyme activity, competitive inhibitor | Trypanosoma brucei | with: Z-FR-AMC substrate | 17000 nM
CC[C@H](C)[C@@H]1NC(=O)[C@@H](CCCCN)NC(=O)[C@H](CC(=O)O)NC(=O)[C@H]2CCCN2C(=O)[C@@H](CCC(N)=O)NC(=O)[C@H](C(C)C)NC(=O)[C@@H]2CCCN2C(=O)[C@@H](CS)NC1=O | blaNDM-1 | enzyme activity, inhibitor |  | with: nitrocefin 1.5 µM | 10200 nM

For quick reference, copied from above:
SMILES | target | assay | test system | conditions | Ki
CC[C@H](C)[C@@H]1NC(=O)[C@@H]2CCCN2C(=O)[C@@H](CS)NC(=O)[C@H](Cc2ccc(O)cc2)NC(=O)[C@@H](CCCNC(=N)N)NC(=O)[C@@H](CCCNC(=N)N)NC(=O)[C@H](CCC(=O)O)NC(=O)[C@@H]2CCCN2C1=O | blaNDM-1 | enzyme activity, inhibitor |  | with: nitrocefin 1.5 µM | 2580 nM
CC[C@H](C)[C@@H]1NC(=O)[C@@H](CCCCN)NC(=O)[C@H](CC(=O)O)NC(=O)[C@H]2CCCN2C(=O)[C@@H](CCC(N)=O)NC(=O)[C@H](C(C)C)NC(=O)[C@@H]2CCCN2C(=O)[C@@H](CS)NC1=O | blaNDM-1 | enzyme activity, inhibitor |  | with: nitrocefin 1.5 µM | 10200 nM
